Results from different studies.
Each numbered part is a random draw from the data of one study; scales do not carry over between parts. Changes are numbered by the printed parent chain.
Sequence of UniProt O75116 (whole entry, looked up): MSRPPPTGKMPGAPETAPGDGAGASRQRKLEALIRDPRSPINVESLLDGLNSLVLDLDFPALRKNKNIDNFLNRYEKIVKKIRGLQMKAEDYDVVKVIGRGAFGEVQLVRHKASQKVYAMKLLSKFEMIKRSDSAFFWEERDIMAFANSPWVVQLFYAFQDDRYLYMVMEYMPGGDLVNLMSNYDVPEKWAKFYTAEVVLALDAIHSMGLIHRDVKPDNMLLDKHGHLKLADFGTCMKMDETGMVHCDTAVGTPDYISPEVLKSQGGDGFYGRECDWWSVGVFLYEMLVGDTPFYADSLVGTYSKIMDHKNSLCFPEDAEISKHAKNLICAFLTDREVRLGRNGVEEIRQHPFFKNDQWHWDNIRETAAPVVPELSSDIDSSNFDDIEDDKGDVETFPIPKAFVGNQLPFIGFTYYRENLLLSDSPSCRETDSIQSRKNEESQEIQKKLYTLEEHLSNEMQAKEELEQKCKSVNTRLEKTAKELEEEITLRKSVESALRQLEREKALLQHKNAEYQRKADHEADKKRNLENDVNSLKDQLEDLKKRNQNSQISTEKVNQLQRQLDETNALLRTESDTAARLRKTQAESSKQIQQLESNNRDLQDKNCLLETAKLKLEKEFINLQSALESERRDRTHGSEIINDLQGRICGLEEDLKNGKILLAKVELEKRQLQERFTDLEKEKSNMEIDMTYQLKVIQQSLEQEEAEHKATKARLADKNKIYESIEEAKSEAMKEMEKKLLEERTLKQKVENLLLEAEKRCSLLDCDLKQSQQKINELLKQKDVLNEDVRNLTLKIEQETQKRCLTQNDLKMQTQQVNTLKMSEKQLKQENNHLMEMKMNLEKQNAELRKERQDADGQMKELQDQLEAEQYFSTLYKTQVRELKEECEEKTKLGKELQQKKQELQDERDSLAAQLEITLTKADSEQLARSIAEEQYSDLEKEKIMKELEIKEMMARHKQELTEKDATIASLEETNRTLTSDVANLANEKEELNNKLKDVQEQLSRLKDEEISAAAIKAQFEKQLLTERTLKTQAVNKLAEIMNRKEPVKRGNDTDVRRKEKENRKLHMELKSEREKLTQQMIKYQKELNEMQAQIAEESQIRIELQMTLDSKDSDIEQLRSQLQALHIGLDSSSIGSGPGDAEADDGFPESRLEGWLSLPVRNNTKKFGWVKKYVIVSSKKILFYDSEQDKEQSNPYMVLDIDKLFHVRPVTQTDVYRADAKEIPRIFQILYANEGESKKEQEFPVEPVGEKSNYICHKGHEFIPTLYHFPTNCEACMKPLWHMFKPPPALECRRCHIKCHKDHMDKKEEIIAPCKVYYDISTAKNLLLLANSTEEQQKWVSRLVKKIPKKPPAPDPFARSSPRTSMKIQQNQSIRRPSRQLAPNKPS
Sequence of UniProt Q8TDX7 (whole entry, looked up): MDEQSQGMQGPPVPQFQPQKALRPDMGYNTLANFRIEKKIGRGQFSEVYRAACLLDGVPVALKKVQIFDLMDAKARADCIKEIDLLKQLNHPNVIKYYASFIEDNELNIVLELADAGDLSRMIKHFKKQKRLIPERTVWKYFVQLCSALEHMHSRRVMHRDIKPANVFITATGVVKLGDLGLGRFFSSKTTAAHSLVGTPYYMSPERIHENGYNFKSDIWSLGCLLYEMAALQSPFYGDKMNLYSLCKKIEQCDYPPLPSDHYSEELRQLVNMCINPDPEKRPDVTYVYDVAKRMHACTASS
Sequence of UniProt P17948 (whole entry, looked up): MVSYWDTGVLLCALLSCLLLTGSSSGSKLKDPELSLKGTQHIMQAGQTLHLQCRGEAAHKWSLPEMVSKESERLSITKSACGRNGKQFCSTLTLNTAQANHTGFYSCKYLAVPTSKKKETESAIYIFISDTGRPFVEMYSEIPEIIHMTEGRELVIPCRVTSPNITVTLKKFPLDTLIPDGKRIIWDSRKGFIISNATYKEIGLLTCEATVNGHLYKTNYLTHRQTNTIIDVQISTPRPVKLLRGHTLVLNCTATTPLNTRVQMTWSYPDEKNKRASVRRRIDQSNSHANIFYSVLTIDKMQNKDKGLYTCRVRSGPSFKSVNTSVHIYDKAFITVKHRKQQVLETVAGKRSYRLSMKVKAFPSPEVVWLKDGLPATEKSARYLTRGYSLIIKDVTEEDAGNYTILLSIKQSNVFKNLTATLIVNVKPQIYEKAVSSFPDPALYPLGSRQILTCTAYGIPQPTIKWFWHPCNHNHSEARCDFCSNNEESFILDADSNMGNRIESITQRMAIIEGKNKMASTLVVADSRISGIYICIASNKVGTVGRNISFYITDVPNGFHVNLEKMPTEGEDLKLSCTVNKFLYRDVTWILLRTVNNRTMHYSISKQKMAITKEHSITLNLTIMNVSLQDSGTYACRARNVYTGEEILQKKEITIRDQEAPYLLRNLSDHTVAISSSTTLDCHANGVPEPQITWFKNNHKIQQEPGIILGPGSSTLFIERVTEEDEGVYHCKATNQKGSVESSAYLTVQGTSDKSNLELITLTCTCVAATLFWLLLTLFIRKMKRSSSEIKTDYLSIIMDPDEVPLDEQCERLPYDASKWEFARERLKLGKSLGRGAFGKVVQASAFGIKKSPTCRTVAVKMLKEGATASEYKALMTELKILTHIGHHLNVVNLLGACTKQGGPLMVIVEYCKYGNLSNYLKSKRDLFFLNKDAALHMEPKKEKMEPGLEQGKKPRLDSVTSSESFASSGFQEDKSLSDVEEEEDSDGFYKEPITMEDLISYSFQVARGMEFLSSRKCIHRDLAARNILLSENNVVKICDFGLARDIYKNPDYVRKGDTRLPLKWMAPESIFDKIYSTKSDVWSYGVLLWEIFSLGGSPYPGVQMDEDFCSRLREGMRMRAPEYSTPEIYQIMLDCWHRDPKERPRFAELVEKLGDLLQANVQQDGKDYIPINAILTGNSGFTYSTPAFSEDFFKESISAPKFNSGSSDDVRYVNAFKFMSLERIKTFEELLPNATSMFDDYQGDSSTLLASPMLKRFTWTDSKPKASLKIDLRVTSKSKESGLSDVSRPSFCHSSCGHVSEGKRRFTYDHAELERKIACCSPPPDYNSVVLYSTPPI

Series 1 — technique: protein-binding microarray; molecule type: hairpin DNA; sample: in vitro; concentration: not given; baseline: not given; direction: higher = stronger binding; endpoint: median fluorescence; shared flanks, not repeated: GAGGCCGAC … GTCGGCCTCACACTC
Target: Krueppel-like factor 3, full length (KLF3, Homo sapiens, UniProt P57682, residues 1-345)
Sequence of UniProt P57682 (whole entry, looked up): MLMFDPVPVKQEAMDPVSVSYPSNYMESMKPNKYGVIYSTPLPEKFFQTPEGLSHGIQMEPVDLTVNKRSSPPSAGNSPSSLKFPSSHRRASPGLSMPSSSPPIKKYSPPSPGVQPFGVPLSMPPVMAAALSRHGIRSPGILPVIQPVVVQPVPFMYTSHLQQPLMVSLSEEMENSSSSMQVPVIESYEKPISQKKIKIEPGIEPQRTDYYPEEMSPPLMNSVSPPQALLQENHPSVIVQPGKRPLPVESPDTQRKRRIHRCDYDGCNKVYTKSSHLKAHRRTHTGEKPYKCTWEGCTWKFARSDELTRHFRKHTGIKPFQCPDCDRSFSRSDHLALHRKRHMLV
Notes: whole hairpin DNA, median over replicate spots
CGGGCCCAGCCTCCTGGCTGGGCCCG (5mC at 33): 7880 a.u.
CGCGCCCCGCCTCCTGGCGGGGCGCG: 9030 a.u.
CGCGCGCAGCCTCCTGGCTGCGCGCG: 10800 a.u.
CACGGCCAGCCTCCTGGCTGGCCGTG (5mC at 31): 8520 a.u.
GGCGCCCAGCCTCCTGGCTGGGCGCC (5mC at 9): 8530 a.u.
CCCGCCCAGCCTCCTGGCTGGGCGGG (5mC at 11): 8720 a.u.
CGCGCACAGCCTCCTGGCTGTGCGCG: 8780 a.u.
CACGGCCAGCCTCCTGGCTGGCCGTG: 8470 a.u.

Series 2 — target: CRIPT, C-terminal peptide; technique: DHFR complementation, deep sequencing; sample: yeast; baseline: wild type; direction: higher = weaker binding; endpoint: binding free energy change
Notes: single substitutions, model-inferred values
Parent: ERBIN, PDZ domain 1 (human); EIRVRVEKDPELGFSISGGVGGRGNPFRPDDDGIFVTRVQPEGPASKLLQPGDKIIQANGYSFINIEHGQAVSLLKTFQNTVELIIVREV; partner TKNYKQTSV
G33D: 0.506 kcal/mol
V4S: 0.618 kcal/mol
Q79G: 0.0149 kcal/mol
R88N: 0.413 kcal/mol
D32C: 0.0871 kcal/mol
Q50Y: 0.0455 kcal/mol
I34V: 0.331 kcal/mol
I16W: 1.34 kcal/mol

Series 3 — effect on: cell-free assay; technique: competition with immobilised ligand; concentration: 1 µM; endpoint: remaining binding
Compound: Cc1c(NC(=O)c2cc(C(N)=O)nc3cc(F)ccc23)c(C(F)(F)F)nn1Cc1ccc(C#N)cc1
Receptor tyrosine-protein kinase erbB-4 (ERBB4, Homo sapiens, UniProt Q15303): 95%
Vascular endothelial growth factor receptor 1 (FLT1, Homo sapiens, UniProt P17948): 98%
Serine/threonine-protein kinase Nek7 (NEK7, Homo sapiens, UniProt Q8TDX7): 99%
Tyrosine-protein kinase JAK3, JH1 (JAK3, Homo sapiens, UniProt P52333): 90%
Rho-associated protein kinase 2 (ROCK2, Homo sapiens, UniProt O75116): 99%
Leukocyte tyrosine kinase receptor (LTK, Homo sapiens, UniProt P29376): 82%

Series 4 — effect on: enzyme activity; mode: inhibitor; concentration: 0.5 µM; baseline: control; endpoint: remaining activity
Target: Mitogen-activated protein kinase kinase kinase kinase 4 (MAP4K4, Homo sapiens, UniProt O95819)
Sequence of UniProt O95819 (whole entry, looked up): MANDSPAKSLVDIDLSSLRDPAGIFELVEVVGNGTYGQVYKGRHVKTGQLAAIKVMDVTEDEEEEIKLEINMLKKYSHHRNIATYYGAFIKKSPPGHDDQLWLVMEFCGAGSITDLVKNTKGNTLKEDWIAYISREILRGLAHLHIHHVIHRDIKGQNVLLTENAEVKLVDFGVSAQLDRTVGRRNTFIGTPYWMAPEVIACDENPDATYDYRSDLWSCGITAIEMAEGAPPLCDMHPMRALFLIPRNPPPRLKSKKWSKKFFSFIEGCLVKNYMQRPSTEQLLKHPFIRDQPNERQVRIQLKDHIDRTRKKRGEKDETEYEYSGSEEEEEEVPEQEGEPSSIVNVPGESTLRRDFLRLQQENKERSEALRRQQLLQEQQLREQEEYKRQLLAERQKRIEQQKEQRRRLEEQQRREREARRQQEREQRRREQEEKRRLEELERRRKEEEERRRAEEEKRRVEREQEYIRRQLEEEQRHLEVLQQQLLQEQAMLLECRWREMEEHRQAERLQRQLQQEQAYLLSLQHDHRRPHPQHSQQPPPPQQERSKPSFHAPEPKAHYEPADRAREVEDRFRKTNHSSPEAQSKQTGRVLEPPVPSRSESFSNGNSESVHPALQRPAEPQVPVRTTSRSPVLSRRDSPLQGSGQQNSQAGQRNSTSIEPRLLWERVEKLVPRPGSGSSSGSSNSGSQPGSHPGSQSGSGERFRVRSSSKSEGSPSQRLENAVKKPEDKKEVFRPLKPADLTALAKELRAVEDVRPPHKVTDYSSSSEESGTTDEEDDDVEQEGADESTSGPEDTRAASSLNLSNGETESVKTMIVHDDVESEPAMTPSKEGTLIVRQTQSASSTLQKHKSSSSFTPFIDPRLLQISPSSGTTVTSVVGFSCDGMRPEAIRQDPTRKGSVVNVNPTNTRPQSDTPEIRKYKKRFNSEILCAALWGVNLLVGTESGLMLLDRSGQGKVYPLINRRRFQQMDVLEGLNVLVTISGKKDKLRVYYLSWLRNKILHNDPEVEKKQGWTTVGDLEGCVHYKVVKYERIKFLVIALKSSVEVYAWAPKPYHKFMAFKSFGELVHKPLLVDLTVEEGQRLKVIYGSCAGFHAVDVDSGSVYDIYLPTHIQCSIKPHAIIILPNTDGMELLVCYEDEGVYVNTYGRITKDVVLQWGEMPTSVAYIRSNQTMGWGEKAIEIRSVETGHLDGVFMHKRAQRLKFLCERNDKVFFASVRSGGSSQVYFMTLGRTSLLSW
O=C1NC(=O)C(c2cn(CCCn3ccnc3)c3ccccc23)=C1Nc1ccccc1: 64%
Cn1c2ccccc2c2c3c(c4c5ccccc5n(CCC#N)c4c21)CNC3=O: 0.433%
COc1cc2ncnc(Nc3ccc(Oc4ccccc4)cc3)c2cc1OC: 90.5%
O=c1c2ccccc2[nH]c(=S)n1CCN1CCC(=C(c2ccc(F)cc2)c2ccc(F)cc2)CC1: 99.8%
O=C1NC(=O)C(c2cn(CCCO)c3ncccc23)=C1c1cnccn1: 36.4%
CCOC(=O)c1c(C)[nH]c(/C=C2\C(=O)Nc3ccccc32)c1C: 64.5%
Nc1[nH]nc2nc3ccccc3nc12: 76.2%
Nc1ncnc2n[nH]c(Nc3ccc(F)cc3)c12: 59.4%
CC(C)[C@H](CO)Nc1nc(Nc2cc(N)cc(Cl)c2)c2ncn(C(C)C)c2n1: 86.1%
O=C(Nc1cccc(Nc2cc(Nc3cccc(C(F)(F)F)c3)ncn2)c1)C1CC1: 102%
Nc1ccc2ncnc(NCCc3ccc(Oc4ccccc4)cc3)c2c1: 99.2%
O=S(=O)(c1cccc2cnccc12)N1CCCNCC1: 44.1%
CO[C@H]1C[C@@H]2CC[C@@H](C)[C@@](O)(O2)C(=O)C(=O)N2CCCC[C@H]2C(=O)O[C@H]([C@H](C)C[C@@H]2CC[C@@H](O)[C@H](OC)C2)CC(=O)[C@H](C)/C=C(\C)[C@@H](O)[C@@H](OC)C(=O)[C@H](C)C[C@H](C)/C=C/C=C/C=C/1C: 87.7%
